Experimental data collected from several papers.
Parts stem from different laboratories: compare values within a part only. Changes are numbered by the printed parent chain.

Study 1
Target: Sal-like protein 4, full length isoform A (SALL4, Homo sapiens, UniProt Q9UJQ4, residues 1-1053)
Chain of UniProt Q9UJQ4 (whole entry, looked up): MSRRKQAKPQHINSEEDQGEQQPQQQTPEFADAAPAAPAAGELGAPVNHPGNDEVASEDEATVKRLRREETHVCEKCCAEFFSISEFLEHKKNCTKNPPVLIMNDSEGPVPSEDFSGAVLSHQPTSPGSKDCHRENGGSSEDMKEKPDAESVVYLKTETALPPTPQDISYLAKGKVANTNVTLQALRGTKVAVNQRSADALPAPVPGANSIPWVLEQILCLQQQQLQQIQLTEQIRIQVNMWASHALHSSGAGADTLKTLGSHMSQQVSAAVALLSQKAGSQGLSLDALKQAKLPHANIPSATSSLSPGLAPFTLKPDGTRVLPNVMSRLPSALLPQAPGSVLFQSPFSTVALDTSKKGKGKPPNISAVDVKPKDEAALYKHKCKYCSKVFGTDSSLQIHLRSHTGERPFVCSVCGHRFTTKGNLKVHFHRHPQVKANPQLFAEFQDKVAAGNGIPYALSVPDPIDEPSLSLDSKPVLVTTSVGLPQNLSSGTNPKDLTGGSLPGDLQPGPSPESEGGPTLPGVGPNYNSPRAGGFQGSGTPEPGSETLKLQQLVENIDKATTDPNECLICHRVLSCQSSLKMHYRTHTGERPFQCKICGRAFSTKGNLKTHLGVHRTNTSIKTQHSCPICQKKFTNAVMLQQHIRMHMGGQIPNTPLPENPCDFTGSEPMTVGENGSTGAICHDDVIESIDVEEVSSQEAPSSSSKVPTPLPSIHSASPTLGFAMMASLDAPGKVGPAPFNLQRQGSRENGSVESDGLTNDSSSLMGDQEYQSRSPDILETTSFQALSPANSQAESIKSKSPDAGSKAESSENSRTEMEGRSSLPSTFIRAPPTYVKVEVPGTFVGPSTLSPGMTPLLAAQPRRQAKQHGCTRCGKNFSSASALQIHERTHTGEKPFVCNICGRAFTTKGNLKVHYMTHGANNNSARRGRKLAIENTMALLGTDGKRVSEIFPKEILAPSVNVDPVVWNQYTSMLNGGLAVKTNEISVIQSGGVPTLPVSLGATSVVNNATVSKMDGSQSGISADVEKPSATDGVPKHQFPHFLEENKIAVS
Method: universal PBM
Form: double-stranded DNA, one strand shown
Medium: in vitro
Concentration: 600 nM
Setting: 8-mer, flanks averaged, mean of replicates
Reading: higher = stronger binding
| Sequence | E-score |
| --- | --- |
| CGCTATGA | 0.0574 |
| ATATTAGC | 0.32 |
| GTTGCAAA | 0.0972 |
| CCTAATAC | 0.142 |
| AAACCCAT | 0.202 |

Study 2
Target: CCNB3, cyclin fold, Cln2 fusion (human)
Method: yeast growth competition, sequencing
Medium: yeast
Setting: weak parent motif
Relative to: not given
Reading: higher = stronger binding
Starting sequence: PKN2 docking peptide (human); VSAVQKLDFSDTM; partner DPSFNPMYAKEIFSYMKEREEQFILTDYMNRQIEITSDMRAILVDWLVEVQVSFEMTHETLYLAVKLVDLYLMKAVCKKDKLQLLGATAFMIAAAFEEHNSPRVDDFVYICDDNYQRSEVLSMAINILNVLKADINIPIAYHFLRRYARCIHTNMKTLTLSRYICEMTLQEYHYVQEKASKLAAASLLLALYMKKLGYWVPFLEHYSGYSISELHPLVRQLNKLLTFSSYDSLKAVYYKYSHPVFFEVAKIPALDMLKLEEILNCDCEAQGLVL
| Change | normalised enrichment score |
| --- | --- |
| VSAVQKLDFSSTM [D11S] | 0.333 |
| VSAVQRLDFSDTM [K6R] | 0.0648 |
| VSAVQKDDFSDTM [L7D] | 0.0231 |
| VEAVQKLDFSDTM [S2E] | 0.0508 |
| VSAVQKLDFSDPM [T12P] | 0.518 |
| VSAVQYLDFSDTM [K6Y] | 0.222 |

Study 3
Target: ABI1, truncated, D143A, DHFR fusion (Arabidopsis thaliana)
Method: DHFR PCA, deep sequencing
Medium: yeast
Setting: methotrexate growth selection, single substitutions
Together with: (+)-ABA 58 µM
Relative to: wild-type fitted maximum
Reading: higher = stronger binding
Starting sequence: PYL1, truncated, DHFR fusion (Arabidopsis thaliana); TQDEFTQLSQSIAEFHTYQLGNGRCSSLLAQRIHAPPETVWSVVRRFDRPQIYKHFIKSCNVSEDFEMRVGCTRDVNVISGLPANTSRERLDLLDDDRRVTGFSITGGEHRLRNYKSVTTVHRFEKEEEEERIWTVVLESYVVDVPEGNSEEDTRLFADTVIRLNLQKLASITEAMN; partner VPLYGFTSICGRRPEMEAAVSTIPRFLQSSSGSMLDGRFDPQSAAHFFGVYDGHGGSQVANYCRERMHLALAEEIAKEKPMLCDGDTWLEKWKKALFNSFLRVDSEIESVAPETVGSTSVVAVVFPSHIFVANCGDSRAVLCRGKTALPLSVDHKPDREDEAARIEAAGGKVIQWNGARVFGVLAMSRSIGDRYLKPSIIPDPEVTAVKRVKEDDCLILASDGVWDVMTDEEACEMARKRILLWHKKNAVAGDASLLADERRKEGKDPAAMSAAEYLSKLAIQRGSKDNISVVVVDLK
| Change | relative binding score [%] |
| --- | --- |
| L156C | 85.2 |
| L166S | 4.5 |
| R90W | 6.8 |

Other studies, line by line
| Molecule | target | assay | system | setting | how to read | endpoint | result |
| --- | --- | --- | --- | --- | --- | --- | --- |
| PhoQ, residues 284 288 289 292 302 303 ALSMDL | PhoP, residues 12 14 15 18 19 IQSYL (Escherichia coli, UniProt P23836) | Sort-seq, refers to: YFP reporter | E. coli | PhoQ-PhoP variant library, together with: 10 µM Mg2+ | relative to: high Mg2+ state, higher = stronger signaling | fold induction | 7.49 |

Repeated from above (study 2):
| Change | normalised enrichment score |
| --- | --- |
| VEAVQKLDFSDTM [S2E] | 0.0508 |
